# Published values from different studies.
# Each line is one published result; not all experiments were run side by side.
# B1: PUM1 774-1186 (Homo sapiens, UniProt Q14671); chain LGGLTNGSGRYISAAPGAEAKYRSASSASSLFSPSSTLFSSSRLRYGMSDVMPSGRSRLLEDFRNNRYPNLQLREIAGHIMEFSQDQHGSRFIQLKLERATPAERQLVFNEILQAAYQLMVDVFGNYVIQKFFEFGSLEQKLALAERIRGHVLSLALQMYGCRVIQKALEFIPSDQQNEMVRELDGHVLKCVKDQNGNHVVQKCIECVQPQSLQFIIDAFKGQVFALSTHPYGCRVIQRILEHCLPDQTLPILEELHQHTEQLVQDQYGNYVIQHVLEHGRPEDKSKIVAEIRGNVLVLSQHKFASNVVEKCVTHASRTERAVLIDEVCTMNDGPHSALYTMMKDQYANYVVQKMIDVAEPGQRKIVMHKIRPHIATLRKYTYGKHILAKLEKYYMKNGVDLGPICGPPNGII
# B2: AIR2 1-223 (Saccharomyces cerevisiae, UniProt Q12476); sequence looked up; chain MEKNTAPFVVDTAPTTPPDKLVAPSIEEVNSNPNELRALRGQGRYFGVSDDDKDAIKEAAPKCNNCSQRGHLKKDCPHIICSYCGATDDHYSRHCPKAIQCSKCDEVGHYRSQCPHKWKKVQCTLCKSKKHSKERCPSIWRAYILVDDNEKAKPKVLPFHTIYCYNCGGKGHFGDDCKEKRSSRVPNEDGSAFTGSNLSVELKQEYYRHMNRNSDENEDYQFS
# B3: AZI2 1-75 (Homo sapiens, UniProt Q9H6S1); chain MDALVEDDICILNHEKAHKRDTVTPVSIYSGDESVASHFALVTAYEDIKKRLKDSEKENSLLKKRIRFLEEKLIA
# B4: WDR77 1-107 (Homo sapiens, UniProt Q9BQA1); sequence looked up; chain MRKETPPPLVPPAAREWNLPPNAPACMERQLEAARYRSDGALLLGASSLSGRCWAGSLWLFKDPCAAPNEGFCSAGVQTEAGVADLTWVGERGILVASDSGAVELWE
# B5: β-dystroglycan mature (Oryctolagus cuniculus, UniProt Q28685); N-linked glycans; sequence looked up; chain SIVVEWTNNTLPLEPCPKEQITGLSRRIAEDNGQPRPAFTNALEPDFKATSIAITGSGSCRHLQFIPVAPPGIPSSVTPPTEVPDRDPEKSSEDDVYLHTVIPAVVVAAILLIAGIIAMICYRKKRKGKLTLEDQATFIKKGVPIIFADELDDSKPPPSSSMPLILQEEKAPLPPPEYPSQSVPETTPLNQDTVGEYTPLRDEDPNAPPYQPPPPFTAPMEGKGSRPKNMTPYRSPPPYVPP
# B6: acpP crypto-AcpP 1-78 (Escherichia coli, UniProt P0A6A8); Ser36 phosphopantetheine fluorophore analog; chain MSTIEERVKKIIGEQLGVKQEEVTNNASFVEDLGADSLDTVELVMALEEEFDTEIPDEEAEKITTVQAAIDYINGHQA
# B7: NUB1 (Homo sapiens); chain GPGSMAQKKYLQAKLTQFLREDRIQLWKPPYTDENKKVGLALKDLAKQYSDRLECCENEVEKVIEEIRCKAIERGTGNDNYRTTGIATIEVFLPPRLKKDRKNLLETRLHITGRELRSKIAETFGLQENYIKIVINKKQLQLGKTLEEQGVAHNVKAMVLELKQSEEDARKNFQLEEEEQNEAKLKEKQIQRTKRGLEILAKRAAETVVDPEMTPYLDIANQTGRSIRIPPSERKALMLAMGYHEKGRAFLKRKEYGIALPCLLDADKYFCECCRELLDTVDNYAVLQLDIVWCYFRLEQLECLDDAEKKLNLAQKCFKNCYGENHQRLVHIKGNCGKEKVLFLRLYLLQGIRNYHSGNDVEAYEYLNKARQLFKELYIDPSKVDNLLQLGFTAQEARLGLRACDGNVDHAATHITNRREELAQIRKEEKEKKRRRLENIRFLKGMGYSTHAAQQILLSNPQMWWLNDSNPETDNRQESPSQENIDRLVYMGFDALVAEAALRVFRGNVQLAAQTLAHNGGSLPPELPLSPEDSLSPPATSPSDSAGTSSASTDEDMETEAVNEILEDIPEHEEDYLDSTLEDEEIIIAEYLSYVENRKSATKKN
# B8: PSMG3/PSMG4 heterodimer (Homo sapiens); chain 1 MEDTPLVISKQKTEVVCGVPTQVVCTAFSSHILVVVTQFGKMGTLVSLEPSSVASDVSKPVLTTKVLLGQDEPLIHVFAKNLVAFVSQEAGNRAVLLAVAVKDKSMEGLKALREVIRVCQVW; chain 2 MEGLVVAAGGDVSLHNFSARLWEQLVHFHVMRLTDSLFLWVGATPHLRNLAVAMCSRYDSIPVSTSLLGDTSDTTSTGLAQRLARKTNKQVFVSYNLQNTDSNFALLVENRIKEEMEAFPEKF
# B9: PTK2 1-370 (Homo sapiens, UniProt Q05397); sequence looked up; chain MAAAYLDPNLNHTPNSSTKTHLGTGMERSPGAMERVLKVFHYFESNSEPTTWASIIRHGDATDVRGIIQKIVDSHKVKHVACYGFRLSHLRSEEVHWLHVDMGVSSVREKYELAHPPEEWKYELRIRYLPKGFLNQFTEDKPTLNFFYQQVKSDYMLEIADQVDQEIALKLGCLEIRRSYWEMRGNALEKKSNYEVLEKDVGLKRFFPKSLLDSVKAKTLRKLIQQTFRQFANLNREESILKFFEILSPVYRFDKECFKCALGSSWIISVELAIGPEEGISYLTDKGCNPTHLADFTQVQTIQYSNSEDKDRKGMLQLKIAGAPEPLTVTAPSLTIAENMADLIDGYCRLVNGTSQSFIIRPQKEGERAL
# B10: ktrA (Bacillus subtilis, UniProt O32080); sequence looked up; chain MGRIKNKQFAVIGLGRFGGSICKELHRMGHEVLAVDINEEKVNAYASYATHAVIANATEENELLSLGIRNFEYVIVAIGANIQASTLTTLLLKELDIPNIWVKAQNYYHHKVLEKIGADRIIHPEKDMGVKIAQSLSDENVLNYIDLSDEYSIVELLATRKLDSKSIIDLNVRAKYGCTILAIKHHGDICLSPAPEDIIREQDCLVIMGHKKDIKRFENEGM
# B11: Fcho2 1-390 (Rattus norvegicus, UniProt D3ZYR1); chain MVMAHFVENFWGEKNNGFDVLYHNMKHGQISTKELADFVRERATIEEAYSRSMTKLAKSASNYSQLGTFAPVWDVFKTSTEKLANCHLDLVRKLQELIKEVQKYGEEQVKSHKKTKEEVAGTLEAVQAIQNITQALQKSKENYNAKCVEQERLKKEGATPREIEKAAVKSKKATDTYKLYVEKYALTKADFEQKMTETAQKFQDIEETHLIHIKEIIGSLSNAIKEIHLQIGQVHEEFINNMANTTIESLIQKFAESKGTGKERPGLIEFEECDPASAVEGIKPRKRKTFALPGIIKKEKDAESVECPDADSLNIPDVDEEGFSIKPEANQNDTKENHFYSSSDSDSEDEEPKRYRIEIKPVHPNNVHHTMASLDELKVSIGNITLSPAV
# B12: STBD1 200-358 (Homo sapiens, UniProt O95210); chain HEEWEMVPRHSSWGDVGVGGSLKAPVLNLNQGMDNGRSTLVEARGQQVHGKMERVAVMPAGSQQVSVRFQVHYVTSTDVQFIAVTGDHECLGRWNTYIPLHYNKDGFWSHSIFLPADTVVEWKFVLVENGGVTRWEECSNRFLETGHEDKVVHAWWGIH
# B13: ckap5-a 1560-1839 (Xenopus laevis, UniProt Q9PT63); sequence looked up; chain SPHFDDMHSNTASTINFVISQVASVDINASIQALAQIDEVLRQEDKAEAMSGHIDQFLIATFMQLRLAYNTHMADERLDKDDIVRLYSCIIGNMISLFQMESLAREASTGVLKDLMHGLISLMLDARIEDLEEGQQVVRSVNLLVVKVLEKSDQTNIISALLMLLQDSLLATASSPNFSELVMKCLWRMIRLLPEAINNLNLDRILLDIHNFMRVLPKEKLKQHKSEMPMRTLKTLLHTLCKLKGPKIMDHLSMIENKHESELEAHLLRVMKHSIDRTGS
# B14: POL30 1-258 K164R (Saccharomyces cerevisiae, UniProt P15873); chain MLEAKFEEASLFKRIIDGFKDCVQLVNFQCKEDGIIAQAVDDSRVLLVSLEIGVEAFQEYRCDHPVTLGMDLTSLSKILRCGNNTDTLTLIADNTPDSIILLFEDTKKDRIAEYSLKLMDIDADFLKIEELQYDSTLSLPSSEFSKIVRDLSQLSDSINIMITRETIKFVADGDIGSGSVIIKPFVDMEHPETSIKLEMDQPVDLTFGAKYLLDIIKGSSLSDRVGIRLSSEAPALFQFDLKSGFLQFFLAPKFNDEE
# B15: EFR3A 721-791 L731A (Homo sapiens, UniProt Q14156); chain SNTEEITFEAAKKAIDTSGMEEQEKEKRRLVIEKFQKAPFEEIAAQCESKANLLHDRLAQILELTIRPPPS
# B16: EIF5B 1076-1220 (Homo sapiens, UniProt O60841); sequence looked up; chain YKKQKQEEFKHIAVFPCKIKILPQYIFNSRDPIVMGVTVEAGQVKQGTPMCVPSKNFVDIGIVTSIEINHKQVDVAKKGQEVCVKIEPIPGESPKMFGRHFEATDILVSKISRQSIDALKDWFRDEMQKSDWQLIVELKKVFEII
# B17: cysJ 52-599 (Escherichia coli, UniProt P38038); sequence looked up; chain AATPAPAAEMPGITIISASQTGNARRVAEALRDDLLAAKLNVKLVNAGDYKFKQIASEKLLIVVTSTQGEGEPPEEAVALHKFLFSKKAPKLENTAFAVFSLGDSSYEFFCQSGKDFDSKLAELGGERLLDRVDADVEYQAAASEWRARVVDALKSRAPVVATGAVNEIHTSPYSKDAPLVASLSVNQKITGRNSEKDVRHIEIDLGDSGMRYQPGDALGVWYQNDPALVKELVELLWLKGDEPVTVEGKTLPLNEALQWHFELTVNTANIVENYATLTRSETLLPLVGDKAKLQHYAATTPIVDMVRFSPAQLDAEALINLLRPLTPRLYSIASSQAEVENEVHVTVGVVRYDVEGRARAGGASSFLADRVEEEGEVRVFIEHNDNFRLPANPETPVIMIGPGTGIAPFRAFMQQRAADEAPGKNWLFFGNPHFTEDFLYQVEWQRYVKDGVLTRIDLAWSRDQKEKVYVQDKLREQGAELWRWINDGAHIYVCGDANRMAKDVEQALLEVIAEFGGMDTEAADEFLSELRVERRYQRDVY
# B18: cas1 1-324 (Pseudomonas aeruginosa, UniProt Q02ML7); chain MDDISPSELKTILHSKRANLYYLQHCRVLVNGGRVEYVTDEGRHSHYWNIPIANTTSLLLGTGTSITQAAMRELARAGVLVGFCGGGGTPLFSANEVDVEVSWLTPQSEYRPTEYLQRWVGFWFDEEKRLVAARHFQRARLERIRHSWLEDRVLRDAGFAVDATALAVAVEDSARALEQAPNHEHLLTEEARLSKRLFKLAAQATRYGEFVRAKRGSGGDPANRFLDHGNYLAYGLAATATWVLGIPHGLAVLHGKTRRGGLVFDVADLIKDSLILPQAFLSAMRGDEEQDFRQACLDNLSRAQALDFMIDTLKDVAQRSTVSA
# B19: BECN1 90-171 (Homo sapiens, UniProt A0A024R1X5); sequence looked up; chain STESANSFTLIGEASDGGTMENLSRRLKVTGDLFDIMSGQTDVDHPLCEECTDTLLDQLDTQLNVTENECQNYKRCLEILEQ
# Chain of UniProt P35222 (whole entry, looked up): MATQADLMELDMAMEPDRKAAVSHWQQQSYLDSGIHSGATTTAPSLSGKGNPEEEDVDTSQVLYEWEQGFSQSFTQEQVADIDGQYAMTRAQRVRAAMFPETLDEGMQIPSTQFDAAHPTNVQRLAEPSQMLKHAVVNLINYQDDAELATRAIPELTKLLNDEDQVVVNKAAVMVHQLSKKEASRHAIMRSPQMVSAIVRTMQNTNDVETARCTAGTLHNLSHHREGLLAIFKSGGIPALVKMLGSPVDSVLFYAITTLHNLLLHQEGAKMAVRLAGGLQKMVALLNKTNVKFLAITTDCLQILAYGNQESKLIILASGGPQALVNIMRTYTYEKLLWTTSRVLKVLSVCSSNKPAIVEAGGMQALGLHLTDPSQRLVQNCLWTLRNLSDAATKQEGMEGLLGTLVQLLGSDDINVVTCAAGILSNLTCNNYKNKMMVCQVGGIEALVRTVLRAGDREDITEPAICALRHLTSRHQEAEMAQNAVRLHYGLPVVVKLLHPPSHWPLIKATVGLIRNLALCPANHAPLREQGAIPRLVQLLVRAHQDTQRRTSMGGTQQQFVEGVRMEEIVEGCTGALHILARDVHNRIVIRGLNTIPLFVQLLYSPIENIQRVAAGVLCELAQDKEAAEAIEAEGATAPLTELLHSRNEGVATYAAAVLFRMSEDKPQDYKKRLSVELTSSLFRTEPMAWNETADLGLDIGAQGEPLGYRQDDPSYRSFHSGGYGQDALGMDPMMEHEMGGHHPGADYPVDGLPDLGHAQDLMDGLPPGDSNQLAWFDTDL
# Chain of UniProt Q13200 (whole entry, looked up): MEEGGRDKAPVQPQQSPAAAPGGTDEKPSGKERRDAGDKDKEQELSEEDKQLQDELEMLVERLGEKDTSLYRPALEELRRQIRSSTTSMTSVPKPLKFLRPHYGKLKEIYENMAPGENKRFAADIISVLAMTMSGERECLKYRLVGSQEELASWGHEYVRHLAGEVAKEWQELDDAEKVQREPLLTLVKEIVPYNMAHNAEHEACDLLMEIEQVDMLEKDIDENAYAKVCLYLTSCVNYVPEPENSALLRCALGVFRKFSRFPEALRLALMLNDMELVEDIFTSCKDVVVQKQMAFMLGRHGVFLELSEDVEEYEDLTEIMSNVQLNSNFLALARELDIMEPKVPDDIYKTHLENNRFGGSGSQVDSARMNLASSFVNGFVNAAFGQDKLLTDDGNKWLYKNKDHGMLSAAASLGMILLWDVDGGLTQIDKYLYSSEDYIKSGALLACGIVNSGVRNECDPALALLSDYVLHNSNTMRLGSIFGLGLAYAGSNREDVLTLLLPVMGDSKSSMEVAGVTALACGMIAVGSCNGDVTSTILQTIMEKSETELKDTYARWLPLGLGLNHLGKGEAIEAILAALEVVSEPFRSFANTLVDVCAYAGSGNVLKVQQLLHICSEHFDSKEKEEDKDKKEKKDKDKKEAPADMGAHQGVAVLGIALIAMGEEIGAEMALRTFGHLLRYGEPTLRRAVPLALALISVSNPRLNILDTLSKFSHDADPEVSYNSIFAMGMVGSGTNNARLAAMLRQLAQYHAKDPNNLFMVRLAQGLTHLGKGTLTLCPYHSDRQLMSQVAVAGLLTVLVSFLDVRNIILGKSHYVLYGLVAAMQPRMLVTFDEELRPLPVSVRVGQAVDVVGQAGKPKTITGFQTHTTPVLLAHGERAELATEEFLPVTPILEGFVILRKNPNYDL
# Chain of UniProt P47047 (whole entry, looked up): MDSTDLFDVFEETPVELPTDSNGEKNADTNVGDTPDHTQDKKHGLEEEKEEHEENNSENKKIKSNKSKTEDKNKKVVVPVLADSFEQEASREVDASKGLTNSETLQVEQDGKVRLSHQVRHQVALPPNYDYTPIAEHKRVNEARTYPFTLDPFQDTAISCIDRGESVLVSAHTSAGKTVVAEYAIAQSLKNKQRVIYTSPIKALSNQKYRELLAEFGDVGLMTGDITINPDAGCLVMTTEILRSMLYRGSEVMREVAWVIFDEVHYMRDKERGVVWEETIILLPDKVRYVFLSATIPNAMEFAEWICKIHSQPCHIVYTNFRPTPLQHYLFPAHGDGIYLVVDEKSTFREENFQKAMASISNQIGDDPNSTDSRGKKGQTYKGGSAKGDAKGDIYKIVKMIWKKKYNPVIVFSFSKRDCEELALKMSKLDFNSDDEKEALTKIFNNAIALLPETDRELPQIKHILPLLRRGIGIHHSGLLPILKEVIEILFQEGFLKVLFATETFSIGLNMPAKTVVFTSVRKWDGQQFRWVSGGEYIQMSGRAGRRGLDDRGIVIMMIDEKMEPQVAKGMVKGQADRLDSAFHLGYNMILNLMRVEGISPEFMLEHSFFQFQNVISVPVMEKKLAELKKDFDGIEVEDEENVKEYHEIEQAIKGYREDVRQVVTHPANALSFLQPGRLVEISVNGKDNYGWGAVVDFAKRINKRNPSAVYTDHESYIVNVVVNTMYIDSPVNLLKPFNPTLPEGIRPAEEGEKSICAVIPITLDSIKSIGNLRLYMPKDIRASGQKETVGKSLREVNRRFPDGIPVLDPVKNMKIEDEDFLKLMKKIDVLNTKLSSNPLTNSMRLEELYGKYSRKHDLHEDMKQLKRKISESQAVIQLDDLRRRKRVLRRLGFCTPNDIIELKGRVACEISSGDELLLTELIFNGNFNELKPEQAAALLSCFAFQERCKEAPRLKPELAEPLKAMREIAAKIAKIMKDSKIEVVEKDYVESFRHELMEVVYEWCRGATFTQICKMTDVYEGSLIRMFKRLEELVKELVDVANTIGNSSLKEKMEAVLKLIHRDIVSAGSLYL
# Chain of UniProt O32081 (whole entry, looked up): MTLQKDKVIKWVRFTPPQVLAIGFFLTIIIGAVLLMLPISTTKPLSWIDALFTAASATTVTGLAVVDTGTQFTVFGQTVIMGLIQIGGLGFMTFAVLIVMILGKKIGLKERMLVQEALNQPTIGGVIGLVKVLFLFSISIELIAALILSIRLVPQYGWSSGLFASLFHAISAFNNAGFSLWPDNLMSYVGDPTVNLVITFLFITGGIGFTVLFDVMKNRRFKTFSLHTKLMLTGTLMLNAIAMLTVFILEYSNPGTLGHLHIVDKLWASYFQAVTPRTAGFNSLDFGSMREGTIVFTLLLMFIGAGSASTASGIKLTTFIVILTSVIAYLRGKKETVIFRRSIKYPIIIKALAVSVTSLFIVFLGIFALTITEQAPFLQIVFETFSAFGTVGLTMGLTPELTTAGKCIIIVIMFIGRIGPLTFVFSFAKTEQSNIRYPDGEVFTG
# Chain of UniProt P23258 (whole entry, looked up): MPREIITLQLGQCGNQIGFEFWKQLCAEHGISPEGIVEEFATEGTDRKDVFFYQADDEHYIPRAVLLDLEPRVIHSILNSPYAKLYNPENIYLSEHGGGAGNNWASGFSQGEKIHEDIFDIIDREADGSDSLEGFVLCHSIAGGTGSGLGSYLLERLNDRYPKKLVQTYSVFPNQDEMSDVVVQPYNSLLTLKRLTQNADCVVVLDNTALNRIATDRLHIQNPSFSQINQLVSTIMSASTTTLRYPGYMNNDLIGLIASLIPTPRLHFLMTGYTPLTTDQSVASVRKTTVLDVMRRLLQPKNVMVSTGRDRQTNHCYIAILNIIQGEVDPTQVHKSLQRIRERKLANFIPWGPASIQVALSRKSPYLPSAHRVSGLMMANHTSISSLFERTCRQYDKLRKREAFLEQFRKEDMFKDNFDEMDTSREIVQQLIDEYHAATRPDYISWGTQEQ
# Chain of UniProt O14744 (whole entry, looked up): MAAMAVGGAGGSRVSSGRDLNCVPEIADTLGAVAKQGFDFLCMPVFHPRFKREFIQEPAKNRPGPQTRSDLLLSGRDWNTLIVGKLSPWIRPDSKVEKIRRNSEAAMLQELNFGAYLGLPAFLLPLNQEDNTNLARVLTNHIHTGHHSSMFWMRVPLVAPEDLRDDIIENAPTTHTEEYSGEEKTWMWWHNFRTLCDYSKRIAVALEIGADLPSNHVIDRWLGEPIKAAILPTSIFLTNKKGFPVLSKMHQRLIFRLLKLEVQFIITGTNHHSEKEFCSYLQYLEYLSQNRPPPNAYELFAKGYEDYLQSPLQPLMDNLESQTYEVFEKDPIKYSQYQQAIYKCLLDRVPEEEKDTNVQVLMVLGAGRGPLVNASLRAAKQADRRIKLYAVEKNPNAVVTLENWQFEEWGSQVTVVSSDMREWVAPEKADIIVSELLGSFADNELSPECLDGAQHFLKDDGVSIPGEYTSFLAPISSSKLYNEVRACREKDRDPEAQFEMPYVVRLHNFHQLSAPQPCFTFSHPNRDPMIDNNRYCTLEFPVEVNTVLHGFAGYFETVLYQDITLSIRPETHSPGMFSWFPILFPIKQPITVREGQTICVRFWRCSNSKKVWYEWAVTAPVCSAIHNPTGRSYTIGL
# Chain of UniProt P17846 (whole entry, looked up): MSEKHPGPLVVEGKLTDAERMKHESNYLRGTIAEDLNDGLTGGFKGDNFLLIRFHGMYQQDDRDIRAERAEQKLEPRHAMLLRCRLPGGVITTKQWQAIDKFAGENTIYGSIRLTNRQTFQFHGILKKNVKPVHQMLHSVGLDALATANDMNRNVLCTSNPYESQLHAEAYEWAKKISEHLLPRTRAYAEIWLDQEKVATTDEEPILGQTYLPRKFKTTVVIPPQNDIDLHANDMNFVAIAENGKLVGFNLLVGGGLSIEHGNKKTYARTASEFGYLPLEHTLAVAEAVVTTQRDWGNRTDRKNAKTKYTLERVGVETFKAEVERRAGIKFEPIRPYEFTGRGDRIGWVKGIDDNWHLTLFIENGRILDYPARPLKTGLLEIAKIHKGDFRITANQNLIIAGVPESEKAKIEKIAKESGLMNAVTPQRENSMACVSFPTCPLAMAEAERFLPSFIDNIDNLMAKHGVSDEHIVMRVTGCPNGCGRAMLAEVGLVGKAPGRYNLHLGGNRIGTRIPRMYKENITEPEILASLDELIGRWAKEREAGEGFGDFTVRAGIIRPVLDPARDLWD
Molecule,partner,assay,test system,setting,binding
B1 (PUM1 774-1186),CNOT1/CNOT2/CNOT3 C-terminal NOT module 1833-2361,pull-down,,,binds
B2 (AIR2 1-223),"MTR4 (Saccharomyces cerevisiae, UniProt P47047)",HDX-MS,,,binds
B3 (AZI2 1-75),"RB1CC1 1286-1594 (Homo sapiens, UniProt Q8TDY2)",SEC,,,binds
B4 (WDR77 1-107),"PRMT5 (Homo sapiens, UniProt O14744)",co-IP,,in vitro,binds
B1 (PUM1 774-1186),CNOT1/CNOT2/CNOT3 NOT module 1833-2361,pull-down,,,binds
B5 (β-dystroglycan mature),"DAG1 alpha-dystroglycan (Oryctolagus cuniculus, UniProt Q28685)",cryo-EM structure,,,binds
B6 (acpP crypto-AcpP 1-78),"entE 1-536 (Escherichia coli, UniProt P10378)","fluorescence emission spectra, solvatochromic probe",,,binds
GGDDLGANDELISFKDEGEQEEK (TCF7L2 8-30 (UniProt Q9NQB0); C-terminal fluorescein label; sequence looked up),"CTNNB1 135-668 (Homo sapiens, UniProt P35222)",fluorescence polarisation,peptide,,binds
B7 (NUB1),"PSMD2 (Homo sapiens, UniProt Q13200)",cryo-EM,,,binds
B8 (PSMG3/PSMG4 heterodimer),"PSMA1 (Homo sapiens, UniProt P25786)",cryo-EM,,,binds
B9 (PTK2 1-370),"PRKCQ (Homo sapiens, UniProt Q04759)",pull-down,,,binds
B10 (ktrA),"ktrB 1-445 (Bacillus subtilis, UniProt O32081)",SEC,,,binds
B11 (Fcho2 1-390),"AP2A2/AP2B1/AP2M1/AP2S1 core, lacking appendage domains (Mus musculus)",liposome binding,liposomes,,binds
B12 (STBD1 200-358),GABARAPL1 fragment (Homo sapiens),ITC,,,binds
B13 (ckap5-a 1560-1839),"TUBG1 (Homo sapiens, UniProt P23258)",pull-down,,,binds
B14 (POL30 1-258 K164R),"ECO1 (Saccharomyces cerevisiae, UniProt P43605)",pull-down,,,binds
B15 (EFR3A 721-791 L731A),TTC7B/FAM126A FAM126A 1-308 (Homo sapiens),BLI,,,binds
B16 (EIF5B 1076-1220),"EIF5 196-431 (Homo sapiens, UniProt P55010)",NMR titration,,,binds
B17 (cysJ 52-599),"cysI 1-570 (Escherichia coli, UniProt P17846)",cryo-EM structure,,,binds
B18 (cas1 1-324),"cas3 1-1076 (Pseudomonas aeruginosa, UniProt Q02ML8)",cryo-EM,,,binds
B19 (BECN1 90-171),"BCL2L1 1-208 N52D/N66D (Homo sapiens, UniProt Q07817-1)",pull-down,,,binds
AGER fragment (Homo sapiens) (sequence not shown),"Histone H3.1 (Homo sapiens, UniProt P68431)",pull-down,,,binds

# A few entries again:
Molecule,partner,assay,test system,setting,binding
B14 (POL30 1-258 K164R),"ECO1 (Saccharomyces cerevisiae, UniProt P43605)",pull-down,,,binds
AGER fragment (Homo sapiens) (sequence not shown),"Histone H3.1 (Homo sapiens, UniProt P68431)",pull-down,,,binds
B18 (cas1 1-324),"cas3 1-1076 (Pseudomonas aeruginosa, UniProt Q02ML8)",cryo-EM,,,binds
